{"data": "Measurements gathered from unrelated publications", "note": "Each numbered part is a random draw from the data of one study; scales do not carry over between parts. Positions count from the first letter of the parent shown."}
{"data": "Block 1", "target": "CCND1, cyclin fold, Cln2 fusion (human)", "technique": "yeast growth competition, sequencing", "matrix": "yeast", "notes": "strong parent motif", "relative to": "not given", "direction": "higher = stronger binding", "parent": "SCAPER docking peptide (human); SNARRSLNFGGST; partner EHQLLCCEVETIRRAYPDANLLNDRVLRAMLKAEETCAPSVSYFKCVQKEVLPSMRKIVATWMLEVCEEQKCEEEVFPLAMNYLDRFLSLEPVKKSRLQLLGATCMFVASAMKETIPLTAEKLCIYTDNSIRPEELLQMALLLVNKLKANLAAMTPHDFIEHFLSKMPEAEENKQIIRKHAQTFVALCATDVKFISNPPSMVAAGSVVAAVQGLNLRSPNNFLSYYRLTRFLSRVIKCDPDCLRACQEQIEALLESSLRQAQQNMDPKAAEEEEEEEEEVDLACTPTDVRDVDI"}
{"Substitution": "R4M", "normalised enrichment score": 0.747}
{"Substitution": "S6N", "normalised enrichment score": 0.852}
{"Substitution": "L7Y", "normalised enrichment score": 0.486}
{"Substitution": "S1Y", "normalised enrichment score": 0.964}
{"Substitution": "R4A", "normalised enrichment score": 0.839}
{"Substitution": "S12R", "normalised enrichment score": -0.242}
{"Substitution": "L7G", "normalised enrichment score": -0.149}
{"data": "Block 2", "target": "Sal-like protein 4, full length isoform B (SALL4, Homo sapiens, UniProt Q9UJQ4-2, residues 1-616)", "technique": "universal PBM", "molecule type": "double-stranded DNA, one strand shown", "matrix": "in vitro", "tested at": "not given", "notes": "8-mer, flanks averaged, mean of replicates", "direction": "higher = stronger binding"}
{"Sequence": "ATATCGGA", "E-score": 0.242}
{"Sequence": "AAGCGAGT", "E-score": -0.0457}
{"Sequence": "ACACCGCT", "E-score": -0.241}
{"Sequence": "ATGGAACA", "E-score": 0.0398}
{"Sequence": "GATTTTAC", "E-score": 0.207}
{"Sequence": "AGAGGAAT", "E-score": -0.00108}
{"Sequence": "AGTACACA", "E-score": 0.119}
{"data": "Block 3", "target": "Histone acetyltransferase KAT6A, winged helix 1, GST fusion (KAT6A, Homo sapiens, UniProt Q92794, residues 1-85)", "technique": "protein binding microarray", "molecule type": "double-stranded DNA, one strand shown", "matrix": "in vitro", "tested at": "not given", "notes": "8-mer, flanks averaged, mean of 2 arrays, mostly near background", "relative to": "not given", "direction": "higher = stronger binding", "Residues (chain)": "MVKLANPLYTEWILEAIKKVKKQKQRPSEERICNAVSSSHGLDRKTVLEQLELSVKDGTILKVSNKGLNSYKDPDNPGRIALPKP"}
{"Sequence": "GTTCTCAA", "E-score": -0.0969}
{"Sequence": "CAAGAGGC", "E-score": -0.0138}
{"Sequence": "AACGACTT", "E-score": -0.136}
{"Sequence": "CCACGTGC", "E-score": 0.0156}
{"Sequence": "ATGGTGCA", "E-score": -0.177}
{"Sequence": "AGATAGAT", "E-score": -0.0596}
{"Sequence": "AACTAGCC", "E-score": -0.0933}
{"Sequence": "ACCGGTAA", "E-score": 0.276}
{"Sequence": "ATGACCGG", "E-score": 0.0674}
{"Sequence": "ATACCACG", "E-score": -0.118}
{"Sequence": "GAGAGGAA", "E-score": -0.199}
{"data": "Other studies, line by line"}
{"Substance": "PhoQ, residues 284 288 289 292 302 303 SLSLLA", "target": "PhoP, residues 12 14 15 18 19 TQAIL (Escherichia coli, UniProt P23836)", "test": "Sort-seq, item: YFP reporter", "test system": "E. coli", "setting": "PhoQ-PhoP variant library, added: 10 µM Mg2+", "how to read": "relative to: high Mg2+ state, higher = stronger signaling", "endpoint": "fold induction", "result": 55.1}
